Experimental data gathered from unrelated publications.
Lines come from different studies, so protocols differ. ± marks the error that the study gave.
Organism: Staphylococcus aureus

The MIC of `CCN(CC)c1ccc(C=NNC(=O)c2ccccn2)c(O)c1` is reported as 8 µg/mL (broth microdilution; ATCC 29213; 16 to 24 h).
The MIC of `O=C1/C(=C(\O)C2CCCCC2)C(=O)[C@@]2(C(=O)OCc3ccc(Br)cc3)CS[C@H](c3ccccc3)N12` is reported as 0.98 µg/mL (broth dilution; MRSA; with: Fe3+, Ca2+, Mg2+, Zn2+ at blood levels).
For `COc1cc(Cc2cnc(N)nc2N)cc(/C=C/C(=O)N2N=Cc3ccccc3C2c2ccccc2)c1OC` (stereo not shown), the MIC was 0.5 µg/mL (microbial growth, broth dilution; ATCC29213; pH 5.8).
The MIC of `CNCc1cc(N(C)C)c2c(c1O)C(=O)C1=C(O)[C@]3(O)C(=O)C(C(N)=O)=C(O)[C@@H](N(C)C)[C@@H]3C[C@@H]1C2` is reported as 4 µg/mL (microbial growth, broth dilution).
The MIC of `COc1cc(NC(=O)CSc2nc3ccccc3c(=O)n2-c2ccc(S(N)(=O)=O)cc2)cc(OC)c1` is reported as 12.5 µg/mL (methicillin-resistant; 24 h, 37 °C).
With `CCCCCCc1ccc(Oc2ccccc2C#N)c(O)c1` the MIC was 2 µM (microbial growth, broth dilution).
The MIC of `CN(C)c1cc(CNCc2ccc(O)cc2)c(O)c2c1C[C@H]1C[C@H]3[C@H](N(C)C)C(O)=C(C(N)=O)C(=O)[C@@]3(O)C(O)=C1C2=O` is reported as 8 µg/mL (MRSA 5, Tet M ribosome protection).
`CCn1[c]([Au-]([Cl])([Cl])[Cl])[n+](CC)c2ccc(C(=O)OC)cc21` has an MIC of 1.6 ± 0.5 µM (broth dilution; MRSA DSM 11822; 20 h, 37 °C).
The MIC of `CCN(CC)CCCN1/C(=C/c2cc[n+](C)c3ccccc23)Sc2ccccc21` is reported as 2 µg/mL (microbial growth, broth dilution; ATCCBAA41 MRSA).
The MIC of `C[C@H]1COc2c(N3CCN(C)CC3)c(F)cc3c(=O)c(C(=O)N[C@@H](CCCNC(=N)N)C(=O)N[C@@H](Cc4ccc(-c5ccccc5)cc4)C(=O)N[C@@H](CCCNC(=N)N)C(=O)N[C@@H](Cc4ccc(-c5ccccc5)cc4)C(=O)N[C@@H](CCCNC(=N)N)C(N)=O)cn1c23` is reported as 20 µM (broth microdilution; ATCC BAA-44).
`CN(C)Cc1cc(N(C)C)c2c(c1O)C(=O)C1=C(O)[C@]3(O)C(=O)C(C(N)=O)=C(O)[C@@H](N(C)C)[C@@H]3C[C@@H]1C2` gave an MIC of 2 µg/mL (RN4250, Tet K efflux).
`O=C1OCC(SCc2ccccc2)N1/N=C/c1ccc([N+](=O)[O-])o1` (stereo not shown) has an MIC of 3.12 µg/mL (microbial growth, broth dilution; ATCC29213; 18 h).
`c1ccc(CN2CCOCCOCCN(CCCCCCCCCCN3CCOCCOCCN(CCCCCCCCCCN4CCOCCOCCN(Cc5ccccc5)CCOCCOCC4)CCOCCOCC3)CCOCCOCC2)cc1` has an MIC of 6 µM (microbial growth; MRSA).
`CCCCCCCCCCCCCCN1C(=O)/C(=N\NC(=N)N)c2cc(C)ccc21` gave an MIC of greater than 192 µg/mL (microbial growth, broth dilution; 18 h).
The MIC of `CN(C)c1cc(CNC2CCCC2)c(O)c2c1C[C@H]1C[C@H]3[C@H](N(C)C)C(O)=C(C(N)=O)C(=O)[C@@]3(O)C(O)=C1C2=O` is reported as 1 µg/mL (RN4250, Tet K efflux).
`CC(CCCOC(=O)CCC[N+](C)(C)C)C1CCC2C3CCC4CC(OC(=O)CCC[N+](C)(C)C)CCC4(C)C3CCC12C` (stereo not shown) has an MIC of less than 0.5 µg/mL (microbial growth, broth dilution; ATCC29213; 16 h).
With `CCCCO[C@H]1[C@H](O)[C@@H](N)[C@@H](O[C@H]2[C@H](O[C@@H]3O[C@H](CO)[C@@H](O[C@H]4O[C@@H](CN)[C@@H](O)[C@H](O)[C@H]4N)[C@H]3O)[C@@H](O)[C@H](N)C[C@@H]2N)O[C@@H]1CO` the MIC was 16 µg/mL (broth microdilution; MRSA isolate AG 042).
With `CCCCCCCCCc1nc2ccc(Cl)cc2c(=O)n1N` the MIC was greater than 100 µM (broth microdilution; RN6390B).
`CCCCCCCCCCCCCCCC(=O)N(C)[C@H](CO)C(=O)N[C@H](C)C(=O)NCC(=O)N(C)[C@@H]1C(=O)N[C@@H](C)C(=O)N[C@H](C(=O)O)Cc2ccc(O)c(c2)-c2cc1ccc2O[C@@H]1O[C@@H](C)[C@H](O)[C@@H](O)[C@H]1O` — result for MIC: “inactive” (NCTC 8325; cation-adjusted Mueller Hinton II).
`Oc1c(Br)cc(Br)c2nc3cc(C(F)(F)F)ccc3nc12` has an MIC of 0.05 µM (broth microdilution; MRSA 1707; 16 h, 37 °C).
`CCCCCCCCCCCN1C(=O)/C(=N\NC(=N)N)c2cc(C)ccc21` has an MIC of 6 µg/mL (microbial growth, broth dilution; 18 h).
With `NC[C@@H]1O[C@H](O[C@H]2[C@@H](O)[C@H](O[C@@H]3[C@@H](O)[C@H](N)C[C@H](N)[C@H]3O[C@H]3O[C@H](CO)[C@@H](OCCO)[C@H](O)[C@H]3N)O[C@@H]2CO)[C@H](N)[C@@H](O)[C@@H]1O` the MIC was 32 µg/mL (broth microdilution; MRSA isolate AG 039).
With `CN1CCC(NCCC2(Cc3ccc(Cl)cc3)CCCCC2)CC1` the MIC was 200 µM (microbial growth; MRSA; 10 h).
The MIC of `CCCCN(CCCC)CC(O)COc1c2ccoc2c(OC)c2oc(CC)cc(=O)c12` (stereo not shown) is reported as 256 µg/mL (microbial growth, broth dilution; ATCC6538; 19 h).
The MIC of `CC(=NNC(=N)N)c1nnn(-c2ccc(C#CC3(O)CCCCC3)cc2)c1C` is reported as 3.9 µg/mL (microbial growth; ATCC43300 MRSA).
`COC1(C)CC2C=CC3C(C)C=CC=CC(C)OC(=O)C(C)C(=O)C(Cl)(Cl)C(=O)C3C2C(C)C1O` (stereo not shown) gave an MIC of 4 to 8 µg/mL (microbial growth, broth dilution; NEWMAN).
`CN(C)c1cc(CN2CCCCCC2)c(O)c2c1C[C@H]1C[C@H]3[C@H](N(C)C)C(O)=C(C(N)=O)C(=O)[C@@]3(O)C(O)=C1C2=O` gave an MIC of 1 µg/mL (MRSA 5, Tet M ribosome protection).
The MIC of `CNC(CC(C)C)C(=O)NC1C(=O)NC(CC(N)=O)C(=O)NC2C(=O)NC3C(=O)NC(C(=O)NC(C(=O)O)c4cc(O)cc(O)c4-c4cc3ccc4O)C(O)c3ccc(c(Cl)c3)Oc3cc2cc(c3OC2OC(CO)C(O)C(O)C2OC2CC(C)(NC(=O)CCCCCCCC[N+](C)(C)Cc3ccccc3)C(O)C(C)O2)Oc2ccc(cc2Cl)C1O` (stereo not shown) is reported as 128 µg/mL (agar dilution; MRSA clinical isolate MRSA4).
The MIC of `CC1CCN(CCCN2/C(=C/c3cc(/C=C/c4c[nH]c5ccccc45)[n+](C)c4ccccc34)Sc3ccccc32)CC1` is reported as 16 µg/mL (microbial growth, broth dilution; ATCC29213).
The MIC of `CN(Cc1cc(N(C)C)c2c(c1O)C(=O)C1=C(O)[C@]3(O)C(=O)C(C(N)=O)=C(O)[C@@H](N(C)C)[C@@H]3C[C@@H]1C2)CC(C)(C)C` is reported as 0.5 µg/mL (RN4250, Tet K efflux).
With `CCCCOCCOCc1nc2ccccc2c(=O)n1N` the MIC was greater than 100 µM (broth microdilution; RN6390B).
With `CNC(CC(C)C)C(=O)NC1C(=O)NC(CC(N)=O)C(=O)NC2C(=O)NC3C(=O)NC(C(=O)NC(C(=O)O)c4cc(O)cc(O)c4-c4cc3ccc4O)C(O)c3ccc(c(Cl)c3)Oc3cc2cc(c3OC2OC(CO)C(O)C(O)C2OC2CC(C)(NC(=O)CCCCCCCC[N+]3(C)CCOCC3)C(O)C(C)O2)Oc2ccc(cc2Cl)C1O` (stereo not shown) the MIC was 32 µg/mL (agar dilution; MRSA clinical isolate MRSA4).
`CN(C)c1ccc2c(CC(=O)NCCCn3cc(CCCCC(=O)Oc4c(Cl)cc(Cl)cc4-c4[nH]c(Cl)c(Cl)c4Cl)nn3)cc(=O)oc2c1` gave an MIC of 0.125 µg/mL (microbial growth, broth dilution; NCTC8325; 20 h).
The MIC of `Cc1cc(=O)nc(NC(=O)NCCCCCCNC(=O)NCCCCCCNC(=O)OCCOCCOCCOCCOCCOCCOCC(=O)N[C@@H](CCCCN)C(=O)N[C@@H](CCCCN)C(=O)N[C@@H](Cc2ccccc2)C(=O)N2CCC[C@H]2C(=O)N[C@@H](Cc2c[nH]c3ccccc23)C(=O)N[C@@H](Cc2c[nH]c3ccccc23)C(=O)N[C@@H](Cc2c[nH]c3ccccc23)C(=O)N2CCC[C@H]2C(=O)N[C@@H](Cc2ccccc2)C(=O)N[C@@H](CCCCN)C(=O)N[C@@H](CCCCN)C(N)=O)[nH]1` is reported as 15 µM (MSSA RN 4220, RPMI medium; 24 h, 37 °C).
With `C/C(=N\Nc1nc(C)cs1)c1ccc2c(c1)sc1nc(=O)c(C#N)cn12` the MIC was less than 39 µg/mL (microbial growth, broth dilution).
The MIC of `CCc1nc(N)nc(N)c1C#CC(C)c1cc(-c2cc(C)nc(C)c2)ccc1OC` (stereo not shown) is reported as 0.156 µg/mL (microbial growth, broth dilution; ATCC43300; 18 h).
`CN1/C(=C/C=C/c2cc(-c3ccccc3)cc(-c3ccccc3)[o+]2)C(C)(C)c2ccccc21` gave an MIC of 0.5 µg/mL.
The MIC of `CNC(CC(C)C)C(=O)NC1C(=O)NC(CC(N)=O)C(=O)NC2C(=O)NC3C(=O)NC(C(=O)NC(C(=O)O)c4cc(O)cc(O)c4-c4cc3ccc4O)C(O)c3ccc(c(Cl)c3)Oc3cc2cc(c3OC2OC(CO)C(O)C(O)C2OC2CC(C)(NC(=O)CCCCCCCC[n+]3ccccc3)C(O)C(C)O2)Oc2ccc(cc2Cl)C1O` (stereo not shown) is reported as 512 µg/mL (agar dilution; MRSA clinical isolate MRSA3).
`CCn1cc(/C=C/c2ccc3ccccc3[n+]2CC)c2ccccc21` has an MIC of 4 ± 0.002 µg/mL (1466, Mueller-Hinton broth).
`CN(C)c1cc(CNCc2ccccc2)c(O)c2c1C[C@H]1C[C@H]3[C@H](N(C)C)C(O)=C(C(N)=O)C(=O)[C@@]3(O)C(O)=C1C2=O` has an MIC of 0.25 µg/mL (microbial growth, broth dilution).
For `C=CCO[C@H]1[C@H](O)[C@@H](N)[C@@H](O[C@H]2[C@H](O[C@@H]3O[C@H](CO)[C@@H](O[C@H]4O[C@@H](CN)[C@@H](O)[C@H](O)[C@H]4N)[C@H]3O)[C@@H](O)[C@H](N)C[C@@H]2N)O[C@@H]1CO`, the MIC was 16 µg/mL (broth microdilution; MRSA isolate AG 042).
For `CC1CCN(Cc2cc(N(C)C)c3c(c2O)C(=O)C2=C(O)[C@]4(O)C(=O)C(C(N)=O)=C(O)[C@@H](N(C)C)[C@@H]4C[C@@H]2C3)CC1`, the MIC was 0.25 µg/mL (MRSA 5, Tet M ribosome protection).
`CC[P+](CC)(CC)[Au-][S][C@@H]1O[C@H](COC(C)=O)[C@@H](O[C@@H]2O[C@H](COC(C)=O)[C@H](OC(C)=O)[C@H](OC(C)=O)[C@H]2OC(C)=O)[C@H](OC(C)=O)[C@H]1OC(C)=O` gave an MIC of 0.03 µM (broth microdilution; JE2 (USA300)).
